# Results gathered from unrelated publications.
# Compare with care: the assays were run in different laboratories. “And” joins repeats or separate records; there may be more than shown. Numbers after ± are the reported error.
# gag-pol integrase: Gag-Pol polyprotein, integrase (gag-pol, Human immunodeficiency virus 1, UniProt P12497)
# BCHE: Cholinesterase (BCHE, Homo sapiens, UniProt P06276)
# Sequence of UniProt P06276 (whole entry, looked up): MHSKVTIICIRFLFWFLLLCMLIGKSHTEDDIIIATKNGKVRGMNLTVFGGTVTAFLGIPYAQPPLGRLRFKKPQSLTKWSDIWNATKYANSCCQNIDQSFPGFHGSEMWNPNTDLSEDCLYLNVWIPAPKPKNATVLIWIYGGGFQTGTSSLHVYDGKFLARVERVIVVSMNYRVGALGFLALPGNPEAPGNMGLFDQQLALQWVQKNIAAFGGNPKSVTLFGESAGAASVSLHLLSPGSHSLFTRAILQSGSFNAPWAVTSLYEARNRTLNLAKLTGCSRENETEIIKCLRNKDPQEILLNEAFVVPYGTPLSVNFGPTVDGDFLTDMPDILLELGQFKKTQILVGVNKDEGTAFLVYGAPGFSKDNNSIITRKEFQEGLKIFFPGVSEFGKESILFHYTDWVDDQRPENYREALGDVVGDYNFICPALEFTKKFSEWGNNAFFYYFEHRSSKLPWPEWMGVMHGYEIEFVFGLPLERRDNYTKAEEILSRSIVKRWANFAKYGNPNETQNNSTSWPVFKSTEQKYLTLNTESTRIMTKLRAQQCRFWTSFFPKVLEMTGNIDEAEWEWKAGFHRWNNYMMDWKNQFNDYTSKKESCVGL
# ilvC: Ketol-acid reductoisomerase (NADP(+)) (ilvC, Mycobacterium tuberculosis, UniProt P9WKJ7)
# Sequence of UniProt P9WKJ7 (whole entry, looked up): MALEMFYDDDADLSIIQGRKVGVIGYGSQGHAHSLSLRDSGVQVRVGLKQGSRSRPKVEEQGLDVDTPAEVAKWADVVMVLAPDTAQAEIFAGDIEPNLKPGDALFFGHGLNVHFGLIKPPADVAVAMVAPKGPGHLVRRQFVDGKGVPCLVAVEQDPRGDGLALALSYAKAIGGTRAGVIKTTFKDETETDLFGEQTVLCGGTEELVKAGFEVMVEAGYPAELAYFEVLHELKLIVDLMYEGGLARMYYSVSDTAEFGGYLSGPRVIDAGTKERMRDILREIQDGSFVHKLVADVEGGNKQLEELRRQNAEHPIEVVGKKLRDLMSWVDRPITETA
# Sequence of UniProt O43614 (whole entry, looked up): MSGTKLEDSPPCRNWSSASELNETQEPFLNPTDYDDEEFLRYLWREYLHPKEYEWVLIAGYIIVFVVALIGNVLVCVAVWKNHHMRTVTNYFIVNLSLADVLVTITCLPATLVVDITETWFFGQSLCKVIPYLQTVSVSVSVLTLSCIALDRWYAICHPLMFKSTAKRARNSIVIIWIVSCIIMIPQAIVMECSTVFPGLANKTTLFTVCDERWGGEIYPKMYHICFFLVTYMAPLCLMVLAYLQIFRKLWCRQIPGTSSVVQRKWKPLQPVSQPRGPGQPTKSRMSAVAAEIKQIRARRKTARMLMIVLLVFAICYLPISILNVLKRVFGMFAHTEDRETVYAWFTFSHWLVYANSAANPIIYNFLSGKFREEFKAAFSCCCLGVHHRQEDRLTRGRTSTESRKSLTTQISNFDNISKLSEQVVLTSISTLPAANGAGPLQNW
# Sequence of UniProt P35462 (whole entry, looked up): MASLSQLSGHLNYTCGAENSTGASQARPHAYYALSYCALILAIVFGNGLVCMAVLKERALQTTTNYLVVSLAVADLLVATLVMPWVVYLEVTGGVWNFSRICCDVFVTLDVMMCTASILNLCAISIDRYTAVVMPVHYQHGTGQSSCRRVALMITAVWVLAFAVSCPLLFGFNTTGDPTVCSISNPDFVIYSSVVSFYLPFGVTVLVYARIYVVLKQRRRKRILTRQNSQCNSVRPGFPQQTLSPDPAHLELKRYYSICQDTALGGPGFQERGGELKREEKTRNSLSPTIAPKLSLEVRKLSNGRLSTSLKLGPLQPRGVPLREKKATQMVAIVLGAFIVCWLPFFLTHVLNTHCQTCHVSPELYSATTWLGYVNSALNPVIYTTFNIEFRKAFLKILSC
# Sequence of UniProt P35367 (whole entry, looked up): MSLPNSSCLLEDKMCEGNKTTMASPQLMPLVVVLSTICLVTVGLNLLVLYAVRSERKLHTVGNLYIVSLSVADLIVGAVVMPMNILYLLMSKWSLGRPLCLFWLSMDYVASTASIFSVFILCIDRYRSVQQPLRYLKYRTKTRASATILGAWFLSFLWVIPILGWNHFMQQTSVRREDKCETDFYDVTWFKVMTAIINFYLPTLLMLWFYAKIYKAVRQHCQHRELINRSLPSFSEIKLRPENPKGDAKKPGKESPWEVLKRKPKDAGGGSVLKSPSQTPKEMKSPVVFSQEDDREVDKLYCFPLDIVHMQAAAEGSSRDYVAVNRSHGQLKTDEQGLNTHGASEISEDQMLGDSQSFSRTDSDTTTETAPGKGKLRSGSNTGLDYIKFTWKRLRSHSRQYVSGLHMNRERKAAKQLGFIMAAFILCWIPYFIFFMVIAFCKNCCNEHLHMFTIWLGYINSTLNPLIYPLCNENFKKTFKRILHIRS
# Sequence of UniProt Q8NEW0 (whole entry, looked up): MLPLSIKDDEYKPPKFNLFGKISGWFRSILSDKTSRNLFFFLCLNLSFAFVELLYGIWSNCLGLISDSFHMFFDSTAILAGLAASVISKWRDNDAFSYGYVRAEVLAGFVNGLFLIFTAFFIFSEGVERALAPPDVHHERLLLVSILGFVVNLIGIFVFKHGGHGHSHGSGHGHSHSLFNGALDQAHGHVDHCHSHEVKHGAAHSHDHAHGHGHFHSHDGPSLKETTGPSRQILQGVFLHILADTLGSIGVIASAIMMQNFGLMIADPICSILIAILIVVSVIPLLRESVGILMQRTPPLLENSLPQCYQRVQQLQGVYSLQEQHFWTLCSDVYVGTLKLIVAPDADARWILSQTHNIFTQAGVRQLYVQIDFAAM
Structure (SMILES),target or system,assay,test system,setting,quantity,result
C/C(=N\Nc1ccc(S(=O)(=O)Nc2ccccc2)cc1[N+](=O)[O-])c1cc(O)ccc1O,gag-pol integrase,"strand transfer activity, inhibitor",,wild-type integrase,IC50,> 100 µM
OC(CN1CCC(Cc2ccc(F)cc2)CC1)c1ccc(Cl)cc1 (stereo not shown),Plasmodium falciparum,,3D7,,IC50,1.58 µM
C[C@@H](O)[C@@H](CO)NC(=O)[C@@H](CCCNC(=N)N)NC(=O)[C@@H]1CCCN1C(=O)[C@@H]1CSSC[C@H](NC(=O)[C@H](Cc2ccccc2)NC(=O)CN2CCN(CC(=O)O)CCN(CC(=O)O)CCN(CC(=O)O)CC2)C(=O)N[C@@H](Cc2ccc(O)cc2)C(=O)N[C@@H](Cc2ccccc2)C(=O)N[C@@H](CCC(N)=O)C(=O)N[C@@H](CC(N)=O)C(=O)N1 [gallium-68 labelled],,,"Wistar rat, thyroid","intravenous, 8 MBq, 60 min, group mean",tissue uptake,0.13 %ID/g
CCCCCCCCCCCCCCCC(=O)NCCO,Plasmodium falciparum,,W2,,IC50,3.98 µM
O=C(CN1C2=NCCN2c2ccccc21)c1ccc(-c2ccccc2)cc1,BCHE,inhibitor,,with Triton,IC50,7.2 ± 1.29 µM
O=C(N/N=C/c1ccccc1O)c1cnccn1,gag-pol integrase,"strand transfer activity, inhibitor",,wild-type integrase,IC50,> 100 µM
O=c1[nH]c2sc(-c3ccccc3)nc2c(=O)n1O,ilvC,inhibitor,,"30 min preincubation, with: NADPH",Ki,13.8 ± 2 µM
CN1CCc2cc(Cl)c(O)cc2[C@@H](c2cccc3c2OCC3)C1,BCHE,"enzyme activity, fluorescence",,,IC50,0.4 ± 0.128 µM
COc1cc(Nc2ncc(F)c(Nc3ccc4c(n3)NC(=O)C(C)(C)O4)n2)cc(OC)c1OC,"HCRTR2 (Homo sapiens, UniProt O43614)",,,,IC50,> 10 µM
O=c1[nH]c2nc(-c3ccccc3)sc2c(=O)n1O,ilvC,,,"pre-incubation 30 min without NADPH, with: NADPH 200 µM, AL 1 mM",Ki,0.023 µM and 0.0233 µM
O=C(N/N=C/c1ccc(O)cc1O)c1ccncc1,gag-pol integrase,"strand transfer activity, inhibitor",,wild-type integrase,IC50,> 100 µM
CC(C)(C)C1CCN(C(=O)n2ncc(C(O)(c3ccccc3)c3ccccc3)n2)CC1,BCHE,"inhibitor, fluorometric",,,IC50,2.24 ± 0.72 µM
O=c1[nH]c2sc(-c3ccncc3)nc2c(=O)n1O,ilvC,inhibitor,,"30 min preincubation, with: NADPH",Ki,23.9 ± 6.3 µM
Cc1[nH]c(C)c(S(=O)(=O)Nc2ccc(S(F)(F)(F)(F)F)cc2)c1C(=O)N1CCC(F)(F)C1,"DRD3 (Homo sapiens, UniProt P35462)","allosteric modulator, radioligand binding",,with: dopamine,Kb,2 µM
C[N+](C)(CCOc1ccccc1)Cc1cccs1,BCHE,inhibitor,,with Triton,IC50,10 ± 3.22 µM
COc1ccccc1NS(=O)(=O)c1ccc(N/N=C(\C)c2ccccc2Br)c([N+](=O)[O-])c1,gag-pol integrase,"3'-processing activity, inhibitor",,wild-type integrase,IC50,> 100 µM
CC(C)c1nc2c(=O)n(O)c(=O)[nH]c2s1,ilvC,inhibitor,,"30 min preincubation, with: NADPH",Ki,10.9 ± 1 µM
COc1ncccc1-c1cnn2ccc(N3CCN(C(=O)OC(C)C)CC3)nc12,"HRH1 (Homo sapiens, UniProt P35367)",liability screen,,,IC50,> 30 µM
C[C@H]1CN(c2n[nH]c3nc(N[C@H]4CC[C@H](NS(=O)(=O)CCC(F)(F)F)CC4)ncc23)CCO1,"Zinc transporter 7 (Homo sapiens, UniProt Q8NEW0)",biochemical,,,IC50,≥ 20 µM
CC[C@H](NC(=O)[C@H](CS(=O)(=O)CC1CC1)N[C@@H](c1ccc(F)cc1)C(F)(F)F)C(=O)C(=O)NC1CC1,BCHE,"inhibitor, fluorometric",,,IC50,3.45 ± 1.75 µM
O=C(N/N=C/c1c(O)ccc2ccccc12)c1ccncc1,gag-pol integrase,"3'-processing activity, inhibitor",,wild-type integrase,IC50,> 100 µM
Cc1c(NC(=O)c2cc3c(s2)CCCC3)cccc1-c1cn(C)c(=O)c(Nc2ccc(C3C(=O)N(C)CCN3C)cc2)n1 (racemic),BCHE,inhibitor,,,IC50,6.6 ± 0.43 µM
COc1c(Cl)cc(Cl)cc1/C=N/NC(=O)c1ccncc1,gag-pol integrase,"strand transfer activity, inhibitor",,wild-type integrase,IC50,> 100 µM
Clc1ccccc1CNCC1CCC(CNCc2ccccc2Cl)CC1 (stereo not shown),BCHE,inhibitor,,,IC50,6.15 ± 2.67 µM
NNC(=O)Cn1cnc(-c2ccc(F)cc2)c1,"Gag-Pol polyprotein, integrase with LEDGF/p75 (gag-pol, Human immunodeficiency virus 1, UniProt P12497)","LEDGF/p75-integrase interaction, inhibitor, AlphaScreen",,,IC50,> 50 µM
CCCN(CCC)CCc1c[nH]c2ccccc12,BCHE,"inhibitor, fluorometric",,,IC50,4.06 ± 2.51 µM
COc1ccc(NC(=O)N2CCCCN3C[C@H](c4ccc(C#Cc5ccccc5)cc4)[C@@H]3C2)cc1,Cryptosporidium parvum,luciferase,"HCT-8, transgenic PheRS L482V mutant",48 h,EC50,0.371 µM
Oc1ccc(Br)cc1/C=N/Nc1cccc2cccnc12,gag-pol integrase,"3'-processing activity, inhibitor",,wild-type integrase,IC50,> 100 µM

# For quick reference, copied from above:
Structure (SMILES),target or system,assay,test system,setting,quantity,result
O=C(N/N=C/c1ccc(O)cc1O)c1ccncc1,gag-pol integrase,"strand transfer activity, inhibitor",,wild-type integrase,IC50,> 100 µM
CCCCCCCCCCCCCCCC(=O)NCCO,Plasmodium falciparum,,W2,,IC50,3.98 µM
